Assay results from different studies.
Each numbered part is a random draw from the data of one study; scales do not carry over between parts.

Set 1
Target: RING finger protein unkempt homolog, zinc fingers 1-6, GST-SBP tag (UNK, Homo sapiens, UniProt Q9C0B0, residues 30-357)
Method: RNA Bind-n-Seq
Molecule type: RNA
Medium: in vitro
Tested at: not given
Notes: RNA with constant flanks, ends assumed
Baseline: input RNA pool
Reading: higher = stronger binding
Target sequence (chain): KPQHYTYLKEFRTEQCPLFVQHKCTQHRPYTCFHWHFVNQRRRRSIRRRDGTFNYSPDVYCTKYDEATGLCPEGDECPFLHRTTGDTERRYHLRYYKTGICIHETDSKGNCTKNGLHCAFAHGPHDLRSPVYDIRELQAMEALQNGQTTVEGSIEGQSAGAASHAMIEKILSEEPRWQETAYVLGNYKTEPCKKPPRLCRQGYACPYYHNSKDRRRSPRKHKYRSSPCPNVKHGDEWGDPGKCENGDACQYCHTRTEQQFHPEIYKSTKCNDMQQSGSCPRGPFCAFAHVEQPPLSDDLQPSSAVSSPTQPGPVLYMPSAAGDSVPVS
Sequence	bound/input enrichment [ratio]
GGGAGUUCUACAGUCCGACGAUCUCCUCGUCCUCUGACGUCAGUGAGGGCAGGGCAGCUGAAGCAUCUCAGGGAUUUAGAUUUCUCCGGCGAAGAUGGGGGUUGUCGUCGCUCAGCCAAAAUCAUAGCUCUGAACCAGAGGCACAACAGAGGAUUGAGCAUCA	0.211
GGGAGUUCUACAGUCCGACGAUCCAAGUACAUCUUGGUGUCAGUGAUGAUCUUGGGUUGCUUGCUCACAUGACUGCGAGUGCCGAGUUAACGUGCACAUCAAGCAUAAUGGAAGAGAAAGACUUCAGAAUUCAUACGACGUCACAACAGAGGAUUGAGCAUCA	0.0992
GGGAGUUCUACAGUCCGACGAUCUCUGCUCGAAGACUGGACCCAGAGUACUGGAAGACCAUCCUGAGUUGUGUAUAUGUUUUUACCGUAUUUGGGUUUACGUCUUUCAUUAUGGUUAUUGUUCAUGAGCGUGUGCCUGACAUGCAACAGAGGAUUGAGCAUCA	0.128
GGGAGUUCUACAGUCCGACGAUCGAAAUGAGGGCAAGAGCAAUUAAGGCUCUCAUGAAAGCUGGUGAUAUAAAAAAGCCAGUGCCGUUUUCUGACUUGAAUAUUAUGUGUGUUUGAAUGAAGCCAUGUCAUAUAAUUUUGUAUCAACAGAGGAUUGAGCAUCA	0.22
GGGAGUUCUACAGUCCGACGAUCUCUCUGUUCAGCCGUUAAUGCUGGGAUCCAUAUUUAGUUUUAUAAGCUUUUCCCUGUUUUCCGUUUCGUUUGGGUUUUUUUGGCUCAUGGAUUUUAUUUUCUGUUUGUCGAUAAGAAAUGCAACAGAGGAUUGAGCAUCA	17.9
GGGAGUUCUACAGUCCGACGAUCCCUCCAUCUCGGAGCUGUGGCUGCUGUGGCUGGCUCUGGCCUGCCAGUGCGUUAUAGCCCUCCGGCCUAUUGAACUUACUCUCUAAGAGAGGAUAGGACACCAGGAGAGGCUGCAGCCCUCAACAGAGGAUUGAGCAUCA	0.127
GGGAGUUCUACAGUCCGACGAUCUUCCUGUUACCUUGAAAAAAUAAAAAUGUUAACAGGAAUGCAGUGUGCUCAUUCUCCCUAAACCGUAAAUCCCACUGUAUACAAAACUGUUCUCUUGUUCUGCCUUUUAAAAUGUUCAUGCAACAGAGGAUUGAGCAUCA	0.208
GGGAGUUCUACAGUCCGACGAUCAGAAAUCAAUGUAAUUUUAAACCUCAGAUGGAUCUUGAAGUUAAAGAAAUUUCUCCCGACCGUUAUAAUGCGCAGUUGGUGCAAUUAGAAGCUAUGCUAAGAAAUAAGGAAUUAAAACUUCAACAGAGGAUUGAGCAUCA	2.83

Set 2
Target: RNA binding protein fox-1 homolog 2, RRM domain, GST-SBP tag (RBFOX2, Homo sapiens, UniProt O43251-10, residues 100-194)
Method: RNA Bind-n-Seq
Molecule type: RNA
Medium: in vitro
Tested at: 365 nM
Notes: natural RNA segment, single round, ends assumed
Baseline: no-protein control
Reading: higher = stronger binding
Construct (chain): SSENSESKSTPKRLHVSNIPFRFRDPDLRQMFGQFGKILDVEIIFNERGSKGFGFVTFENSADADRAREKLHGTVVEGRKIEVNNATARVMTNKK
Sequence	RBNS enrichment (R)
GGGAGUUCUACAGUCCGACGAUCCUUCAUAUGGACCAAGUGGCCACACACUGAAAAACCCGUAUAGCGACUCAGUGAAAUAAACAAGAGCCCCCAGUCAGAACUGUGAAACAGGGAAAUUUUGGGGUGGGAGUUGGAAUUCUCGGGUGCCAA	0.384
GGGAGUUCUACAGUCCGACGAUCUUAACUAAGGAGAGACAUACUGGUAUAUCAUUUUACUACAAGCUACAGAUAACCUGUUGAGCUUGUGCCUUGAUUGUUUUAACAACUAGUGCAAAUCAACCUGAUGAUUUUGGAAUUCUCGGGUGCCAA	0.378
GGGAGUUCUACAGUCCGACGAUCCCCUGGUGUACUCCUGAGGUGUCUGCCCCAGCUGGCUGCCCUGGGAGAGUGGCUGGAUGGCUUUGGCUGCCCUGUAGCCUACCUGUGGCAGCAUACUGUGCCAGCCAUGCUGGAAUUCUCGGGUGCCAA	0.228
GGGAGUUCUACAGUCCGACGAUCCUCCGAAACAAGUAGAAAAGUGCUGUUUGAGGGAUUUUAUUAAAUCUUUUUUUAAUGGAAUGUGGUACAAAUUGUUCAUGUUACCAAAGCAAUAUUUCCCUGGAAUUUAAUGGAAUUCUCGGGUGCCAA	0.716
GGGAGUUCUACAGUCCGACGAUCCUAUGGUCUAAUGUUCAAAGAUAUGGGUGGACAGGACUGUGGAAGAUGGACAUGAUAAACCAGUUCUCAGUAGGAGGAAGUAGGACCUUCGAGAGUGGGAGUCUGGUACAUGGAAUUCUCGGGUGCCAA	0.823
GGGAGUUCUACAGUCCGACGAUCAAUCUUUUACAUGGCCUUGGUCUAGAGGAGGCAGGCUUUUAGAAUCAUGUUUUGUUAAUCCGCUUCACUAAAUUGGACCUUCACAUAUCUAAAAAGCUCUGAAGUGUUUGUGGAAUUCUCGGGUGCCAA	0.579
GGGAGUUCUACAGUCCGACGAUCUGCGCAUUGUGCCGUGGGGCUUAGGAUGAGUUGGACACGCGCACUGACAAUGCCUAGGACUGCCUUACUCCCUUCCCUCAGGCCAGUUCCUGGGCCAGCACUAGCCUUGAUGGAAUUCUCGGGUGCCAA	2.17
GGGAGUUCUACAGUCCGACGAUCUCACAAGAUCUCCUCCUCAGUGUCUGUCUGUCUGUCUGUCUGUCUGCCUGGCAUCUGAUGGGUCAGGUCAAGCCCGUGCUGGUUUUGACUAAGGGUAGAGACUAAGGGGAUGGAAUUCUCGGGUGCCAA	0.755

Set 3
Target: Sal-like protein 4, full length isoform B (SALL4, Homo sapiens, UniProt Q9UJQ4-2, residues 1-616)
Method: universal PBM
Molecule type: double-stranded DNA, one strand shown
Medium: in vitro
Tested at: not given
Notes: 8-mer, flanks averaged, mean of replicates
Reading: higher = stronger binding
Sequence	E-score
CAGGACCG	-0.243
ATGCAGAG	-0.0548
CCTTACTC	-0.0506
AGTGTAAG	0.101
AGTAAAGC	0.166
AGATCCGA	-0.123
ATAATCGC	0.239
GGGTGGGA	-0.0841
CTCCTCGA	-0.209
GCTAGCGA	-0.0449
CGATTGAA	-0.0772
TAAAACAA	0.364
ACGACCGT	-0.223
ATTTGTCC	0.155
ATACGGAG	0.0346
ACCCGTTC	-0.0893
CACCGAAG	-0.16
AAGTCAAT	0.193
AACAAACA	0.188
TAAACGCA	0.15
CTAACTAC	-0.0762
AGAACCCT	-0.206
ACCGCTGG	-0.165
AAGCGGAG	-0.158
CTGCGTCC	-0.298

Set 4
Target: Interferon regulatory factor 5, full length, phosphomimetic (IRF5, Homo sapiens, UniProt Q13568-2, residues 1-514, S451D/S453D/S456D/S462D)
Method: protein-binding microarray
Molecule type: double-stranded DNA, one strand shown
Medium: in vitro
Tested at: 940 nM top
Notes: 60-bp whole probe
Together with: salmon DNA 0.4 mg/ml
Baseline: random background probes
Reading: higher = stronger binding
All sequences stand within: GCCTAGCAC … GTCTTGATTCGCTTGACGCTGCTG
Sequence	fitted relative affinity
TCATCTTTTATGCTCTTACTGTGCTAG	0.999 z-score
TTAGGTTTCCTACTGCTGTAGTGCTAG	0.692 z-score
CTAGGACTGGGGTTTCGGTTAGTGCTA	5.77 z-score
TCCATTTTTACCCTCCTTACGTGCTAG	1.71 z-score
TTAGGTTTCCGGTTTCGGTTAGTGCTA	7.71 z-score
GTGAGTCCCAAGAATGGTGTGGTGCTA	-0.375 z-score
AATGCCCTCGGTTTACAGGGGTGCTAG	-0.015 z-score
TTAGGACTGCTTATCGTTTAGTGCTAG	-0.212 z-score
GACGGTTTCGGGTATCGGGGCGTGCTA	10 z-score
TTAGCACTGGGTCTCGGTTAGTGCTAG	1.75 z-score
GACGCACTGAGTCTCGAGACGTGCTAG	0.808 z-score
TTAGATCTCAGACAGGATTAGTGCTAG	-0.178 z-score
TTAGATTTCATACTGGATTAGTGCTAG	0.239 z-score
GACGAACTGAGTCTCCAGACGTGCTAG	-0.389 z-score
TCAGGTATGCTCATGACACTGTGCTAG	-0.185 z-score
TACGGTATCCTTTTCCTGACGTGCTAG	0.832 z-score

Set 5
Target: PABPC1L2, full length, GST fusion (mouse, UniProt A0ABA7IW68)
Method: RNAcompete
Molecule type: RNA
Medium: in vitro
Tested at: 20 nM
Notes: 7-mer, probes averaged, single round
Baseline: mean of 7-mers
Reading: higher = stronger binding
Target sequence (chain): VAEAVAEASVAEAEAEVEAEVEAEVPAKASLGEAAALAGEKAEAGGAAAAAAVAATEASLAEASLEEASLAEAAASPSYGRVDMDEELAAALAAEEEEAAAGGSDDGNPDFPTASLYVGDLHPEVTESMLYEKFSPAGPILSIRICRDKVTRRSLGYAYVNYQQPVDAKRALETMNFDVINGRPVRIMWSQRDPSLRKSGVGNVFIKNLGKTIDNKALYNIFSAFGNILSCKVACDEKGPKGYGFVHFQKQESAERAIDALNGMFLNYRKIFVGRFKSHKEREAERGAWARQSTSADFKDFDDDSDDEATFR
Sequence	7-mer Z-score
ACAACAA	0.669
ACAAACC	0.305
CGACCUU	-0.175
UCUUUUG	-0.103
GUGACUA	0.0116
ACUUGGC	0.0895
UAAUAUU	-0.195
UCUAUGG	-0.148
UCGAAGG	-0.0899
GUCUCAA	0.0478
CCUACGC	-0.36
AGUCUUG	-0.405
AUAGGUC	-0.11
CCAUAUG	-0.213
UUGUGAG	-0.306
GUGCCAG	-0.0971
UGAUCGC	-0.255
GGUCCCA	-0.258

For quick reference, copied from above (set 4):
Sequence	fitted relative affinity
TCATCTTTTATGCTCTTACTGTGCTAG	0.999 z-score
TTAGGTTTCCTACTGCTGTAGTGCTAG	0.692 z-score
CTAGGACTGGGGTTTCGGTTAGTGCTA	5.77 z-score
TCCATTTTTACCCTCCTTACGTGCTAG	1.71 z-score
TTAGGTTTCCGGTTTCGGTTAGTGCTA	7.71 z-score
GTGAGTCCCAAGAATGGTGTGGTGCTA	-0.375 z-score
AATGCCCTCGGTTTACAGGGGTGCTAG	-0.015 z-score
TTAGGACTGCTTATCGTTTAGTGCTAG	-0.212 z-score
GACGGTTTCGGGTATCGGGGCGTGCTA	10 z-score
TTAGCACTGGGTCTCGGTTAGTGCTAG	1.75 z-score
